Experimental data from different studies.
Every numbered part comes from another study and shows a few of its results, in no order. Changes are numbered by the printed parent chain.

Block 1
Target: POU, POU domain (Salpingoeca helianthica)
Technique: Spec-seq
Form: double-stranded DNA, one strand shown
Medium: in vitro
Tested at: not given
Notes: whole probe, mean of replicates
Reference: not given
Reading: lower = stronger binding
All sequences stand within: GAGTCGTCTCGTCAGCAC … ATCCGTAGAGCACTCAGGTC
Target sequence (chain): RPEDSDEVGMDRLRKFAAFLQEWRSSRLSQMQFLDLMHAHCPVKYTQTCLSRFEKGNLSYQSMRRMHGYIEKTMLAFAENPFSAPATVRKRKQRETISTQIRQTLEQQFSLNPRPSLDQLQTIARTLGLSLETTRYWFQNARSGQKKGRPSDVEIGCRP
Under “relative binding energy”, `CCGCTA` is recorded as 0.658 ln ratio.
`ATTGCC` — result for “relative binding energy”: 1.21 ln ratio.
`ATCCGG` — result for “relative binding energy”: 1.36 ln ratio.
For `ATTACT`, “relative binding energy” read 0.455 ln ratio.
Under “relative binding energy”, `ATAGTC` is recorded as 0.942 ln ratio.
Under “relative binding energy”, `ATTGGG` is recorded as 1.32 ln ratio.
`ATGTCC`: “relative binding energy” 1.14 ln ratio.
`ATAATG`: “relative binding energy” -0.139 ln ratio.

Block 2
Target: CCNB3, cyclin fold, Cln2 fusion (human)
Technique: yeast growth competition, sequencing
Medium: yeast
Notes: strong parent motif
Reference: not given
Reading: higher = stronger binding
Starting sequence: viral docking peptide; TSVRRALFTGGSD; partner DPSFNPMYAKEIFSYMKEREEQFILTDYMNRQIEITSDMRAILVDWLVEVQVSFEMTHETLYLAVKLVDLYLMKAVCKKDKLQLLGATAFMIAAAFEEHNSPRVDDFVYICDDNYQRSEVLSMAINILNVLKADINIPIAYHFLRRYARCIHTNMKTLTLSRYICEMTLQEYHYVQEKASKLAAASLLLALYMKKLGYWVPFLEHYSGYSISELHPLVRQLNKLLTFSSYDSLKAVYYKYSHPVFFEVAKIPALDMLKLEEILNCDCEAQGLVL
Under “normalised enrichment score”, `TSVRSALFTGGSD [R5S]` is recorded as -0.105.
`TSGRRALFTGGSD [V3G]` — result for “normalised enrichment score”: -0.0711.
`TSYRRALFTGGSD [V3Y]` — result for “normalised enrichment score”: 0.416.
For `TSVRRALDTGGSD [F8D]`, “normalised enrichment score” read -0.21.
`TSVRLALFTGGSD [R5L]` — result for “normalised enrichment score”: 0.0189.
`TSVRRAAFTGGSD [L7A]`: “normalised enrichment score” 0.177.
`TSVRRALFQGGSD [T9Q]` — result for “normalised enrichment score”: 1.45.
Under “normalised enrichment score”, `TSVRRALFGGGSD [T9G]` is recorded as 1.89.
Under “normalised enrichment score”, `TSVRRALFTGGED [S12E]` is recorded as 2.17.
`TSVRRALPTGGSD [F8P]`: “normalised enrichment score” 0.18.
Under “normalised enrichment score”, `TSVRRALFTGASD [G11A]` is recorded as 1.54.
Under “normalised enrichment score”, `TSVRMALFTGGSD [R5M]` is recorded as 0.399.
For `TSVRVALFTGGSD [R5V]`, “normalised enrichment score” read 0.167.
Under “normalised enrichment score”, `TSVRRMLFTGGSD [A6M]` is recorded as 0.681.
For `TSVARALFTGGSD [R4A]`, “normalised enrichment score” read 0.29.
Under “normalised enrichment score”, `TSVRRLLFTGGSD [A6L]` is recorded as 1.28.
For `TSVGRALFTGGSD [R4G]`, “normalised enrichment score” read -0.25.
Under “normalised enrichment score”, `TSWRRALFTGGSD [V3W]` is recorded as 0.624.

Block 3
Target: Phosphate system positive regulatory protein PHO4, full length, GST-tagged (PHO4, Saccharomyces cerevisiae, UniProt P07270, residues 1-312)
Technique: competition protein-binding microarray
Form: double-stranded DNA, one strand shown
Medium: in vitro
Tested at: 2 µM
Notes: whole 60-bp probe, lowest competitor level
Added: Cbf1 competitor, 0.05 µM
Reading: higher = stronger binding
Construct (chain): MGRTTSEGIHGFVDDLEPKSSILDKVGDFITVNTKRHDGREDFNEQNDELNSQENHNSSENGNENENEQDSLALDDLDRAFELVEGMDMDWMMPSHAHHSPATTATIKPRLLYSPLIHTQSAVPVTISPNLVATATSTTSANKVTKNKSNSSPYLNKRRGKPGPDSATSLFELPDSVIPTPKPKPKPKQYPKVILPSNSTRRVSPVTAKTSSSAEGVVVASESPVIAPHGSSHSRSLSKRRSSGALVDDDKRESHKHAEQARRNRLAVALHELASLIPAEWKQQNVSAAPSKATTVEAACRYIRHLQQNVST
`AAACTTTCTGTGGAAATCGTGCCGATTAAACCATTAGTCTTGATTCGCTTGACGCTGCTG` gave a fluorescence intensity of 8100 a.u.
For `TGTTCAAAAAGCCATCACGTGGAACCCCGAAAAAAAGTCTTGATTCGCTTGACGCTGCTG`, the fluorescence intensity was 14500 a.u.
The fluorescence intensity of `CATACCCAACCTTGTCTTGTGGGTGAAGATATTTGTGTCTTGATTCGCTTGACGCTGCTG` is reported as 4660 a.u.
`CCGCCGGTCTTTTCTCTCGTGGTGAGTGGTACTTTGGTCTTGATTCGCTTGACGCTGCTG` gave a fluorescence intensity of 6910 a.u.
`AGATTTTCAAAATCGCATGTGATATAGTCGAAAGGGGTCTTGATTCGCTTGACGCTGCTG` has a fluorescence intensity of 8830 a.u.
`CTTCTGTAAATTTTTCACGTGCCTTGACGCGCCCCGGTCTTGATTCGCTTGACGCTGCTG` gave a fluorescence intensity of 15000 a.u.
With `TATGGGCTTATTAAGCTCGTGCTGTAAGATCTTGAAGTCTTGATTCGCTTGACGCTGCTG` the fluorescence intensity was 12600 a.u.
`CAACTTTCTTAGATATGCGTGCCGAAAGGCGACCCAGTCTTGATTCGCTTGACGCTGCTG` has a fluorescence intensity of 7090 a.u.

Block 4
Target: tungstate, free oxyanion
Technique: microfluidic competitive inhibition
Medium: in vitro, cell-free expressed
Tested at: not given
Notes: derived from inhibition constants, unchanged parent 2230 nM
Reading: lower = stronger binding
Starting sequence: PafA, mature enzyme, eGFP fusion (Elizabethkingia meningoseptica, UniProt Q9KJX5); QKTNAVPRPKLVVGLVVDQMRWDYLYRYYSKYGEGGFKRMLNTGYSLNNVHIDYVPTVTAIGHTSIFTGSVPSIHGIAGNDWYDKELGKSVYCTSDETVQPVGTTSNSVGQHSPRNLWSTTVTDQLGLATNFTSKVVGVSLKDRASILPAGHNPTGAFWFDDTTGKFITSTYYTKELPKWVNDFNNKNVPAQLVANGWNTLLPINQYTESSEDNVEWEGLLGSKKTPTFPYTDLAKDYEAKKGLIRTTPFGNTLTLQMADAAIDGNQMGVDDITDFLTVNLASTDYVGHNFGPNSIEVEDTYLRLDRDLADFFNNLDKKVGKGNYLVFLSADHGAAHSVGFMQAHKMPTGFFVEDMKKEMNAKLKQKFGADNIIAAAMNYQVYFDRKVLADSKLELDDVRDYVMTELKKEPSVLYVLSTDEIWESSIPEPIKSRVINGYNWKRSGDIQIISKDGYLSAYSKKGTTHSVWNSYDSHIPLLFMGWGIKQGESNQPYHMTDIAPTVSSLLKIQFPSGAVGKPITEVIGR
`I431G`: “oxyanion analog dissociation constant” 704 nM.
Under “oxyanion analog dissociation constant”, `L456V` is recorded as 3.11 µM.
`A370V` — result for “oxyanion analog dissociation constant”: 2.51 µM.
Under “oxyanion analog dissociation constant”, `E489V` is recorded as 2.27 µM.

Single results of other studies
`COC(=O)c1cc(N(C)C(=O)c2ccn3ncc(-c4ccc(C(=O)O)cc4)c3c2)ccc1Cl` has an IC50 of > 30 µM (Mitogen-activated protein kinase 1 (MAPK1, Homo sapiens, UniProt P28482); enzyme activity, inhibitor).

Some of these lines once more (block 3):
`AGATTTTCAAAATCGCATGTGATATAGTCGAAAGGGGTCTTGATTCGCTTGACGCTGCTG` has a fluorescence intensity of 8830 a.u.
`CCGCCGGTCTTTTCTCTCGTGGTGAGTGGTACTTTGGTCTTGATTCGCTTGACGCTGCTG` gave a fluorescence intensity of 6910 a.u.
The fluorescence intensity of `CATACCCAACCTTGTCTTGTGGGTGAAGATATTTGTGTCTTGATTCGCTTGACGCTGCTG` is reported as 4660 a.u.
`CTTCTGTAAATTTTTCACGTGCCTTGACGCGCCCCGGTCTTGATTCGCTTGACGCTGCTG` gave a fluorescence intensity of 15000 a.u.
With `TATGGGCTTATTAAGCTCGTGCTGTAAGATCTTGAAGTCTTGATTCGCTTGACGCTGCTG` the fluorescence intensity was 12600 a.u.
